Results pooled from the literature.
Values joined by “and” are separate records of one study, mostly repeats; a detail may differ. Numbers after ± are the reported error.
LGALS9 N-terminal CRD: Galectin-9, N-terminal CRD (LGALS9, Homo sapiens, UniProt O00182)
BPTF bromodomain: Nucleosome-remodeling factor subunit BPTF, bromodomain (BPTF, Homo sapiens, UniProt Q12830)
RIPK3: Receptor-interacting serine/threonine-protein kinase 3 (RIPK3, Homo sapiens, UniProt Q9Y572)

Compound = Cc1cc(N2CC[C@](C#N)(C3(C)CC3)C2=O)cc(C(=O)NCc2cc(F)cc(-c3cnn(C)c3)c2)n1; target = Proline--tRNA ligase (Plasmodium falciparum, UniProt Q8I5R7); test = binding, microscale thermophoresis; Kd = 0.374 µM and 0.413 µM
Compound = CN1CCC(NC(=O)c2ccc(-c3cc(-c4ccc(F)cc4)c4oc5c(c4c3)CCN(C(=O)/C=C/c3ccc(N)nc3)C5)nn2)C(F)(F)C1 (stereo not drawn); target = PAK4 (Homo sapiens, UniProt O96013); test = binding to kinase domain, surface plasmon resonance; Kd = 2.35 µM
Compound = CC(C)C[C@H](NC(=O)[C@H](CC(C)C)NC(=O)[C@H](CC(C)C)NC(=O)[C@H](CO)NC(=O)[C@H](CCCCN)NC(=O)[C@H](CCC(N)=O)NC(=O)[C@H](CCCCN)NC(=O)[C@H](Cc1ccccc1)NC(=O)[C@H](Cc1ccccc1)NC(=O)[C@@H]1CCCN1C(=O)[C@H](CCC(=O)O)NC(=O)[C@@H](NC(=O)CNC(=O)[C@@H](NC(=O)[C@H](CO)NC(=O)[C@H](CCC(N)=O)NC(=O)[C@@H](N)CS)[C@@H](C)O)[C@@H](C)O)C(=O)O; target = DNA repair protein REV1 (Homo sapiens, UniProt Q9UBZ9); test = binding, SPR; setting = pH 7.5; Kd = ~69 µM
Compound = CC(C=CC=CC=CC1=C(C)CCCC1(C)C)=CCO; target = Rhodopsin, apoprotein (opsin) (RHO, Bos taurus, UniProt P02699); test = Trp fluorescence quenching; test system = opsin membranes; setting = titration up to 1 µM; Kd = 0.0349 µM
Compound = C[Si](C)(C)c1cc2c3c(c1)O[C@H](CO)[C@H](O)[C@@H]3OC2; target = LGALS9 N-terminal CRD; test = binding, competitive fluorescence polarization; setting = 20 °C, galectin-9 N-terminal domain 1.0 µM; Kd = > 6000 µM
Compound = CC(=O)NCCCC[C@H](NC(=O)CNC(=O)CNC(=O)[C@H](C)NC(=O)[C@@H](N)Cc1ccc(O)cc1)C(=O)N[C@@H](C)C(=O)NCC(=O)N[C@@H](CCCCNC(C)=O)C(=O)N[C@@H](CC(=O)O)C(=O)N[C@@H](CO)C(=O)NCC(=O)N[C@@H](CCCCNC(C)=O)C(=O)N[C@@H](C)C(=O)N[C@@H](CCCCN)C(=O)N[C@@H](C)C(=O)N[C@@H](CCCCN)C(=O)N[C@@H](C)C(=O)N[C@H](C(=O)N[C@@H](CO)C(=O)N[C@@H](CCCNC(=N)N)C(N)=O)C(C)C; target = BPTF bromodomain; test = bromodomain binding, PrOF NMR titration; setting = pH 7.4, 5-fluorotryptophan-labelled bromodomain, 40-50 µM; Kd = 810 µM
Compound = CN(C)CCNC(=O)c1cccc2c(NCCCCc3c(N)nc(N)nc3N)c3ccccc3nc12; target = RNA with single C–U pair; test = binding, ITC; setting = 25 °C, 2; Kd = 231 ± 55 µM
Compound = CCCN(CC(=O)N(CCC)CC(=O)N(CCC)CC(=O)N(CCC)CC(=O)N(CC(=O)N(CCC)CC(=O)N(CCC)CC(=O)N(CCC)CC(=O)N(CCC)CC(=O)N(CC(N)=O)Cc1cn(CCCNC(=O)CCCOc2cccc(-c3nc4ccc(-c5nc6ccc(N7CCN(C)CC7)cc6[nH]5)cc4[nH]3)c2)nn1)Cc1cn(CCCNC(=O)CCCOc2cccc(-c3nc4ccc(-c5nc6ccc(N7CCN(C)CC7)cc6[nH]5)cc4[nH]3)c2)nn1)C(=O)CNCc1cn(CCCNC(=O)CCCOc2cccc(-c3nc4ccc(-c5nc6ccc(N7CCN(C)CC7)cc6[nH]5)cc4[nH]3)c2)nn1; target = r(CUG)109 RNA hairpin; test = binding, fluorescence; Kd = 0.065 ± 0.008 µM
Compound = COc1ccc(Cc2cc3c4c(c2)O[C@H](CO)[C@H](O)[C@@H]4OC3)cc1; target = LGALS9 N-terminal CRD; test = binding, competitive fluorescence polarization; setting = 20 °C, galectin-9 N-terminal domain 1.0 µM; Kd = > 1000 µM
Compound = CC[C@H](C)[C@H](NC(=O)[C@H](CCCCN)NC(=O)[C@H](CCCCN)NC(=O)[C@@H](NC(=O)[C@H](CCC(=O)O)NC(=O)[C@H](CCC(=O)O)NC(=O)[C@H](CCC(=O)O)NC(=O)[C@H](CO)NC(=O)[C@H](CC(C)C)NC(=O)[C@H](CC(=O)O)NC(=O)[C@H](CC(C)C)NC(=O)CNC(=O)[C@H](CCCNC(=N)N)NC(=O)[C@H](CC(C)C)NC(=O)[C@H](CO)NC(=O)CNC(=O)CNC(=O)CNC(=O)CCCC[C@@H]1SC[C@@H]2NC(=O)N[C@@H]21)C(C)C)C(=O)N[C@@H](CC(C)C)C(=O)N[C@@H](CC(=O)O)C(=O)N[C@@H](CCC(=O)O)C(=O)N[C@H](C(=O)N[C@H](C(=O)N[C@@H](CCCCN)C(=O)N[C@@H](CC(=O)O)C(=O)N1CCC[C@H]1C(=O)N[C@@H](C)C(=O)N[C@@H](CC(=O)O)C(=O)O)C(C)C)[C@@H](C)CC; target = Fab B11 antibody (human); test = binding, biolayer interferometry; setting = with: biotinylated peptide on tips; Kd = 0.051 ± 0.001 µM
Compound = C[C@H](NC(=O)[C@H](Cc1ccc(O)cc1)NC(=O)[C@H](Cc1ccccc1)NC(=O)[C@H](CCC(=O)O)NC(=O)[C@H](CCC(=O)O)NC(=O)[C@H](CCC(N)=O)NC(=O)[C@H](CCCCN)NC(=O)[C@H](CC(=O)O)NS(=O)(=O)c1cccc2c(N(C)C)cccc12)C(=O)O; target = Rho guanine nucleotide exchange factor TIAM1, PDZ domain (TIAM1, Homo sapiens, UniProt Q13009); test = fluorescence anisotropy; setting = 25 °C, PDZ domain; Kd = 33.4 ± 1.9 µM
Compound = O=C(Cc1cccc(C(F)(F)F)c1)Nc1cc(Oc2c(Br)cc3nc(NC(=O)C4CC4)sc3c2Br)ccc1F; target = RIPK3; test = binding, competition with immobilised ligand; Kd = > 5 µM
Compound = CC(=O)NCCCC[C@H](NC(=O)[C@H](CCCCN)NC(=O)[C@H](Cc1c[nH]cn1)NC(=O)[C@H](CCCNC(=N)N)NC(C)=O)C(=O)Nc1ccc2c(C)cc(=O)oc2c1; target = SIRT1 (Homo sapiens, UniProt Q96EB6, C253S/C268S/C501S/C502S/D292A/D298A/del513-640); test = peptide binding, isothermal titration calorimetry; test system = 10% glycerol; setting = pH 7.5, 25 °C, D292A/D298A mutant, with: resveratrol 0.5 mM; Kd = 6.5 µM
Compound = CNc1ccccc1C(=O)O[C@H]1C[C@H](n2cnc3c(N)ncnc32)O[C@@H]1COP(=O)(O)OP(=O)(O)O; target = Unconventional myosin-Va (Gallus gallus, UniProt Q02440, D297C/G292C/I296C/S293C/V295G); test = binding, ligand, stopped-flow FRET; setting = 15 °C, with: 4 mM EDTA; Kd = 3.87 ± 1.01 µM
Compound = C[n+]1cc(NC(=O)c2ccc3ccc4ccc(C(=O)Nc5cc6ccccc6[n+](C)c5)nc4c3n2)cc2ccccc21; target = G-quadruplex DNA myc22; test = fluorimetric titration; setting = pH 7.2, 100 mM KCl, with: Cy5-labelled DNA 2 nM; Kd = 0.0087 ± 0.004 µM
Compound = C#CCN(CC(=O)N(CCOC)CC(=O)N(CCOC)CC(N)=O)C(=O)CN(CCOC)C(=O)CN(CC1CCCC1)C(=O)CN(CCc1ccc(C(F)(F)F)cc1)C(=O)C(C)N(CCCOC)C(=O)CNCc1ccc(OC)c(OC)c1 (stereo not drawn); target = MMP14 (Homo sapiens, UniProt P50281); test = binding, FP; Kd = ~1.8 µM and 1.8 µM
Compound = CC(=O)NCCCC[C@H](NC(=O)CNC(=O)[C@H](C)NC(=O)[C@H](CCCCN)NC(=O)CNC(=O)CNC(=O)[C@H](C)NC(=O)[C@@H](N)Cc1ccc(O)cc1)C(=O)N[C@@H](CC(=O)O)C(=O)N[C@@H](CO)C(=O)NCC(=O)N[C@@H](CCCCN)C(=O)N[C@@H](C)C(=O)N[C@@H](CCCCNC(C)=O)C(=O)N[C@@H](C)C(=O)N[C@@H](CCCCN)C(=O)N[C@@H](C)C(=O)N[C@H](C(=O)N[C@@H](CO)C(=O)N[C@@H](CCCNC(=N)N)C(N)=O)C(C)C; target = BPTF bromodomain; test = surface plasmon resonance; Kd = 195 ± 30 µM
Compound = Oc1c(Cl)cc(Cl)cc1CN1CCC(N2CCC(O)CC2)CC1; target = TP53 (Homo sapiens, UniProt P04637, M133L/N239Y/N268D/V203A/Y220C); setting = 20 °C, protein 75 µM; Kd = 4900 ± 2300 µM
Compound = OC[C@H]1Oc2cc(I)cc3c2[C@@H](OC3)[C@H]1O; target = Galectin-9 (LGALS9, Homo sapiens, UniProt O00182); test = cell-free assay, FP; Kd = > 2000 µM
Compound = O=C(O)Cc1ccc(O)cc1; target = p-hydroxyphenylacetate 3-hydroxylase, reductase component (C1-hpah, Acinetobacter baumannii, UniProt Q6Q271); test = ITC; setting = pH 7, with: 1 mM FMN; Kd = 10.2 µM
Compound = COc1cc2nc(NC(=O)C3CC3)sc2cc1Oc1ccc(F)c(NC(=O)Cc2cccc(C(F)(F)F)c2)c1; target = RIPK3; test = binding, competition with immobilised ligand; Kd = > 5 µM
Compound = CC(=O)N[C@@H](Cc1ccccc1)C(=O)N[C@@H](Cc1ccccc1)C(=O)N[C@H](/C=C1\CCC[C@H]1C(=O)N[C@@H](CCCNC(=N)N)C(N)=O)COP(=O)(O)O; target = Peptidyl-prolyl cis-trans isomerase NIMA-interacting 1, PPIase domain (PIN1, Homo sapiens, UniProt Q13526); test = binding, NMR chemical shift titration; setting = PPIase domain without WW; Kd = 78 ± 23 µM
Compound = CC[C@H](C)[C@H](NC(=O)[C@H](CCCCN)NC(=O)[C@H](CCCCN)NC(=O)[C@@H](NC(=O)[C@H](CCC(=O)O)NC(=O)[C@H](CCC(=O)O)NC(=O)[C@H](CCC(=O)O)NC(=O)[C@H](CO)NC(=O)[C@H](C)NC(=O)[C@H](CC(=O)O)NC(=O)[C@H](CC(C)C)NC(=O)CNC(=O)[C@H](CCCNC(=N)N)NC(=O)[C@H](CC(C)C)NC(=O)[C@H](CO)NC(=O)CNC(=O)CNC(=O)CNC(=O)CCCC[C@@H]1SC[C@@H]2NC(=O)N[C@@H]21)C(C)C)C(=O)N[C@@H](CC(C)C)C(=O)N[C@@H](CC(=O)O)C(=O)N[C@@H](CCC(=O)O)C(=O)N[C@H](C(=O)N[C@H](C(=O)N[C@@H](CCCCN)C(=O)N[C@@H](CC(=O)O)C(=O)O)C(C)C)[C@@H](C)CC; target = Fab B11 antibody (human); test = binding, biolayer interferometry; setting = with: biotinylated peptide on tips; Kd = 0.2 ± 0.005 µM
Compound = CC(=O)NCCCC[C@H](NC(=O)CNC(=O)CNC(=O)[C@H](C)NC(=O)[C@@H](N)Cc1ccc(O)cc1)C(=O)N[C@@H](C)C(=O)NCC(=O)N[C@@H](CCCCN)C(=O)N[C@@H](CC(=O)O)C(=O)N[C@@H](CO)C(=O)NCC(=O)N[C@@H](CCCCN)C(=O)N[C@@H](C)C(=O)N[C@@H](CCCCNC(C)=O)C(=O)N[C@@H](C)C(=O)N[C@@H](CCCCN)C(=O)N[C@@H](C)C(=O)N[C@H](C(=O)N[C@@H](CO)C(=O)N[C@@H](CCCNC(=N)N)C(N)=O)C(C)C; target = BPTF bromodomain; test = bromodomain binding, PrOF NMR titration; setting = pH 7.4, 5-fluorotryptophan-labelled bromodomain, 40-50 µM; Kd = 790 µM

Repeated from above:
Compound = C[Si](C)(C)c1cc2c3c(c1)O[C@H](CO)[C@H](O)[C@@H]3OC2; target = LGALS9 N-terminal CRD; test = binding, competitive fluorescence polarization; setting = 20 °C, galectin-9 N-terminal domain 1.0 µM; Kd = > 6000 µM
